Values quoted from earlier work as cited in several papers.
≈ marks a conversion by molar mass, not a printed value.

SMILES = Cc1c(C#N)cccc1[C@@H](C)Nc1nnc(C)c2cnc(N3CCOCC3)cc12; target or system = ASPC1; assay = ERK phosphorylation, In-Cell Western, refers to: phospho-ERK; endpoint = IC50; value = > 1000 nM
SMILES = CNC(C)C1CCC(N)C(OC2C(N)CC(N)C(OC3OCC(C)(O)C(NC)C3O)C2O)O1 (stereo not drawn); target or system = Escherichia coli; system = clinical isolate RKI-No_514/16; endpoint = MIC; value = 2 µg/mL (≈ 4.19 µM)
SMILES = Nc1cc(C(F)(F)F)c(-c2nc(N3CCOCC3)nc(N3CCOCC3)n2)cn1; target or system = A-375; endpoint = GI50; value = 1150 nM
SMILES = COc1ccccc1Oc1cccc(CN2CCC(NC(=O)C(CCN3CCCC3)c3ccccc3)CC2)c1 (stereo not drawn); target or system = human CCR8 Y114A mutant (TM3); assay = IP accumulation, agonist; endpoint = EC50; value = 579 nM
SMILES = FC(F)(F)c1ccc(Nc2ncnc3c2CCN(c2ncccc2C(F)(F)F)C3)cc1; target or system = TRPV1; assay = calcium flux, antagonist; system = HEK293; setting = together with: capsaicin; endpoint = IC50; value = 15 nM
SMILES = COc1ccccc1Oc1cccc(CN2CCC(NC(=O)C3CC(=O)Nc4ccccc43)CC2)c1 (stereo not drawn); target or system = human CCR8 Q91W mutant (TM2); assay = IP accumulation, agonist; endpoint = EC50; value = 201 nM
SMILES = Cc1ccc(CNC(=O)Nc2cccc3[nH]ncc23)c(N2CCCCC2)n1; target or system = TRPV1; assay = calcium flux, antagonist; system = HEK293; setting = together with: capsaicin; endpoint = IC50; value = 16 nM
SMILES = COc1ccccc1Oc1cccc(CN2CCC3(CC2)C(=O)NCN3CCc2ccccc2)c1; target or system = human CCR8 V109A mutant (TM3); assay = IP accumulation, agonist; endpoint = EC50; value = 7.7 nM
SMILES = O=C(CCc1ccc(Cl)cc1)Nc1cccc2ccc(O)cc12; target or system = TRPV1; assay = calcium flux, antagonist; system = HEK293; setting = together with: capsaicin; endpoint = IC50; value = 21 nM
SMILES = CC1(C)S[C@@H]2[C@H](NC(=O)[C@H](N)c3ccccc3)C(=O)N2[C@H]1C(=O)O; target or system = Enterobacter cloacae; system = clinical isolate RKI-No_215/15; endpoint = MIC; value = 16 µg/mL (≈ 45.8 µM)
SMILES = C[C@H]1COCCN1c1nc(-c2cnc(N)cc2C(F)F)nc(N2CCOCC2)n1; target or system = DoTc2 4520 cells; assay = cell growth; endpoint = GI50; value = 420 nM
SMILES = O=C(Nc1cccc2cnccc12)NC1CCc2ccccc2C1Cc1ccccc1 (stereo not drawn); target or system = TRPV1; assay = calcium flux, antagonist; system = HEK293; setting = together with: capsaicin; endpoint = IC50; value = 20 nM

Some of these lines once more:
SMILES = COc1ccccc1Oc1cccc(CN2CCC(NC(=O)C3CC(=O)Nc4ccccc43)CC2)c1 (stereo not drawn); target or system = human CCR8 Q91W mutant (TM2); assay = IP accumulation, agonist; endpoint = EC50; value = 201 nM
SMILES = COc1ccccc1Oc1cccc(CN2CCC(NC(=O)C(CCN3CCCC3)c3ccccc3)CC2)c1 (stereo not drawn); target or system = human CCR8 Y114A mutant (TM3); assay = IP accumulation, agonist; endpoint = EC50; value = 579 nM
